{"data": "Assay results collected from several papers", "CGAS catalytic domain; with DNA": "Cyclic GMP-AMP synthase, catalytic domain; with DNA (CGAS, Homo sapiens, UniProt Q8N884)", "USP3 ZnF-UBD domain": "Ubiquitin carboxyl-terminal hydrolase 3, ZnF-UBD domain (USP3, Homo sapiens, UniProt Q9Y6I4)", "HTR3A": "5-hydroxytryptamine receptor 3A (HTR3A, Homo sapiens, UniProt P46098)", "Trypanothione synthetase": "Trypanothione synthetase (Trypanosoma brucei brucei, UniProt Q586P2)", "note": "Compare with care: the assays were run in different laboratories. “And” joins repeats or separate records; there may be more than shown. Numbers after ± are the reported error.", "chain of UniProt Q8N884 (whole entry, looked up)": "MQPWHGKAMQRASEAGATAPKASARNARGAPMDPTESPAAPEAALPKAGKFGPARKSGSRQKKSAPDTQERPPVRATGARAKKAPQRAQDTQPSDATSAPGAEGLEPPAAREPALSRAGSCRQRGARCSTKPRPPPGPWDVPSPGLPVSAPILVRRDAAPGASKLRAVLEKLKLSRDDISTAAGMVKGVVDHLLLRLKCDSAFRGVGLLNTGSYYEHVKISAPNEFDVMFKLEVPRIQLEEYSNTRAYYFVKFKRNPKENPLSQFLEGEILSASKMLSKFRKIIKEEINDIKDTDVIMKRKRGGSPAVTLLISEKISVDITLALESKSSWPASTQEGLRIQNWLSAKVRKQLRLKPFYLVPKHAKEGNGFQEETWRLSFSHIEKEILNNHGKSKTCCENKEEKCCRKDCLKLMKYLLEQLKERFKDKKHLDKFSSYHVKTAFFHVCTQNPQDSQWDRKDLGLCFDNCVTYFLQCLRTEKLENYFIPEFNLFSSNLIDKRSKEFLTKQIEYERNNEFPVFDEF", "chain of UniProt P46098 (whole entry, looked up)": "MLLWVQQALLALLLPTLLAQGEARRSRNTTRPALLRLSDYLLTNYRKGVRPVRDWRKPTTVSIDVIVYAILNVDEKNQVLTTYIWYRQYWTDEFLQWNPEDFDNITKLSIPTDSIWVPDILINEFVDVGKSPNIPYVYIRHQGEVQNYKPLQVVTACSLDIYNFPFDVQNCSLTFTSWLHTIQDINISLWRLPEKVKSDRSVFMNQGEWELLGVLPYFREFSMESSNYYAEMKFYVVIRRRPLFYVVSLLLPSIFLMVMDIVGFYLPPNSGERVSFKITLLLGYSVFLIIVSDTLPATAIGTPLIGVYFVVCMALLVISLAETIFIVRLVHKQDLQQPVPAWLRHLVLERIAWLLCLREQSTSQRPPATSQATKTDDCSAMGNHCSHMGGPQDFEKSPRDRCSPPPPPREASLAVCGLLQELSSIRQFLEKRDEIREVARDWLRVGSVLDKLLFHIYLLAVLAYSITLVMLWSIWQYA", "chain of UniProt Q9Y6I4 (whole entry, looked up)": "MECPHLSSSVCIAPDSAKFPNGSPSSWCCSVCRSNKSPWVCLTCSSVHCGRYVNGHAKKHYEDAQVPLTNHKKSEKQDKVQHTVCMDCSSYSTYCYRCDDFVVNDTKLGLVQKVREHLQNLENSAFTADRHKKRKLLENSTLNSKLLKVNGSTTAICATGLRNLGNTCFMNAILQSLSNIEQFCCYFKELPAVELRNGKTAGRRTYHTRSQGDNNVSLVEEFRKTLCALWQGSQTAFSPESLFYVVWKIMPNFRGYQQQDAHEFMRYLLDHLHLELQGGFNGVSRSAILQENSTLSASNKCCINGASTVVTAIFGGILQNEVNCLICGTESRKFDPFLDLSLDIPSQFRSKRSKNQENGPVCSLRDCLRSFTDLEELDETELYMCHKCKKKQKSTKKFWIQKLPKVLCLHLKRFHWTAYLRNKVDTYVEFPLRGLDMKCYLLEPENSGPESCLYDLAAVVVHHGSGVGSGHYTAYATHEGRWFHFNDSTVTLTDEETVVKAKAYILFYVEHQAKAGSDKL", "chain of UniProt P05067 (whole entry, looked up)": "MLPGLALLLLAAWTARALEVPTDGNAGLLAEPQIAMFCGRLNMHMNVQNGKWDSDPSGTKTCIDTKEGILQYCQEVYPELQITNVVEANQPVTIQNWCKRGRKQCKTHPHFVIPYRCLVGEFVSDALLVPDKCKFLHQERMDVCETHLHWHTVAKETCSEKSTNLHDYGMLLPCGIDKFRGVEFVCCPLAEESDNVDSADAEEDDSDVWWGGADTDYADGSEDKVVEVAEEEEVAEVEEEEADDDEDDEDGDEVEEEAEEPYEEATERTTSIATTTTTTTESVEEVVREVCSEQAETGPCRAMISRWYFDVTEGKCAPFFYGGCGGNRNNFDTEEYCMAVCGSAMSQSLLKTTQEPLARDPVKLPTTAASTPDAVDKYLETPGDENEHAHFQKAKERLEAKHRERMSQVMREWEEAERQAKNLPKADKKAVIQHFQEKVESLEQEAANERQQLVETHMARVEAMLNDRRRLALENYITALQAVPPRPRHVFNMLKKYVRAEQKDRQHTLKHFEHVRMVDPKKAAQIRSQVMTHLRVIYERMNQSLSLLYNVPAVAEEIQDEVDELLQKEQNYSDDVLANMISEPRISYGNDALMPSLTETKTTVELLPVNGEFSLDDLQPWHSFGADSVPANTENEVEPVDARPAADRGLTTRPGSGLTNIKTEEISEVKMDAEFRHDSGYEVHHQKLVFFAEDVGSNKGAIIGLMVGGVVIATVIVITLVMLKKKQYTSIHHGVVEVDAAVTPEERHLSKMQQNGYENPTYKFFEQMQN", "chain of UniProt Q03330 (whole entry, looked up)": "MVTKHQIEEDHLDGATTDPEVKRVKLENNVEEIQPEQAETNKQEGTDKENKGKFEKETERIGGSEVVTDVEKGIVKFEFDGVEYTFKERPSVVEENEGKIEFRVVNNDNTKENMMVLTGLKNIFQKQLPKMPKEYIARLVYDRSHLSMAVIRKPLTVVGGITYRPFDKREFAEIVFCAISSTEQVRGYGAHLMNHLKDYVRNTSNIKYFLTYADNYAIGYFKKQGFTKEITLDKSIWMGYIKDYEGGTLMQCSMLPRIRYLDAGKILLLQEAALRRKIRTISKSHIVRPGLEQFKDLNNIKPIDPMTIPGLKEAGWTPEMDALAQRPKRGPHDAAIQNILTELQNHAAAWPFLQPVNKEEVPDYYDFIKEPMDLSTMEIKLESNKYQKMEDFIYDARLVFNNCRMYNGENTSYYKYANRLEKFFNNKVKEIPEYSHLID", "chain of UniProt Q99720 (whole entry, looked up)": "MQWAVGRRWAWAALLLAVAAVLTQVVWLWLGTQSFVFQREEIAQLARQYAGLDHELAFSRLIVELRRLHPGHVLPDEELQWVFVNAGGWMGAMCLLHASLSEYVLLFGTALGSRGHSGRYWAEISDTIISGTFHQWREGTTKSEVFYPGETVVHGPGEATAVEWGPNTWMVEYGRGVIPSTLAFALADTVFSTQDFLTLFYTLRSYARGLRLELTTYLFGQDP", "chain of UniProt O60725 (whole entry, looked up)": "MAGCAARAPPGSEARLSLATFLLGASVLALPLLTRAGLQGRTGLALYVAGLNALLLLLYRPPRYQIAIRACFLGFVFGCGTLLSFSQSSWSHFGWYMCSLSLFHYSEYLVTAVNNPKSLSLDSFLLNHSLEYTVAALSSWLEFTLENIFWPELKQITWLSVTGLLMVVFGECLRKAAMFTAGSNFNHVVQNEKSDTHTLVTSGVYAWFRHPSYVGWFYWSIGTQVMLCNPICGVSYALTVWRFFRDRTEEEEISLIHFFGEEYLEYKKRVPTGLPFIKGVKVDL", "chain of UniProt P33032 (whole entry, looked up)": "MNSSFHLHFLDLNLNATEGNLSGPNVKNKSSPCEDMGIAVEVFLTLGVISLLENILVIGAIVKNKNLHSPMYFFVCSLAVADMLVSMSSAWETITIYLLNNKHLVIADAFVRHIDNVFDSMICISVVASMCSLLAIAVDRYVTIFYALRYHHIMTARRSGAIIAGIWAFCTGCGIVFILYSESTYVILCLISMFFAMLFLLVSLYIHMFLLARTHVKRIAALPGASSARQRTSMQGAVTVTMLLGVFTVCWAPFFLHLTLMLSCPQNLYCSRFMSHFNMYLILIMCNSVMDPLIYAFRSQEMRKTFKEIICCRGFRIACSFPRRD", "chain of UniProt P42338 (whole entry, looked up)": "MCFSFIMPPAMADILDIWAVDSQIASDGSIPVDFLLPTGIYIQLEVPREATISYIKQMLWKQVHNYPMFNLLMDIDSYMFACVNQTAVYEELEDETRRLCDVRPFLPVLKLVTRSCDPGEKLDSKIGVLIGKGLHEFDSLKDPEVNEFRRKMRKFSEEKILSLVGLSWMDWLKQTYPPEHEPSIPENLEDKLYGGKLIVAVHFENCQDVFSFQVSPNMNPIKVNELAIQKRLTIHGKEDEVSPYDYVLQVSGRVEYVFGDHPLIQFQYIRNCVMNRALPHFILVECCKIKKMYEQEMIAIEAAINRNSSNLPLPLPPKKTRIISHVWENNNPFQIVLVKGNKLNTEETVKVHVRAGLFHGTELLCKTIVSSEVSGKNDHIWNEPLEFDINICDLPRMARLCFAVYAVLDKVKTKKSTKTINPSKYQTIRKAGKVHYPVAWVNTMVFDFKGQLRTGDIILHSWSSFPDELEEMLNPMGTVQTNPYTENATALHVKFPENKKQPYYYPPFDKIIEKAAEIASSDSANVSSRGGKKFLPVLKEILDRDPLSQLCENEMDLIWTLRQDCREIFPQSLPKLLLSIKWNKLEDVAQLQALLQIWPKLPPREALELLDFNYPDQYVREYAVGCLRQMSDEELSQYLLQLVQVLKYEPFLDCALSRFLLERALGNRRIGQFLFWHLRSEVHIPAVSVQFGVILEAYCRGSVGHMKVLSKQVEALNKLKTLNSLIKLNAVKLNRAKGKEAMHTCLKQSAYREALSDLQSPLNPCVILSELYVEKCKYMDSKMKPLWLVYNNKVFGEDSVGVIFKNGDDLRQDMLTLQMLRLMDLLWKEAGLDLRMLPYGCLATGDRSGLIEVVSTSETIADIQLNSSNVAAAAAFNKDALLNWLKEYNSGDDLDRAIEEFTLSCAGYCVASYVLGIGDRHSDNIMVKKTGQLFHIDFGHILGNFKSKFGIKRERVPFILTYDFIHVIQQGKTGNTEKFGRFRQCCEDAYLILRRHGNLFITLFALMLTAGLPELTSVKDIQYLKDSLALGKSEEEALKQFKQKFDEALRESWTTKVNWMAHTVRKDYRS"}
{"SMILES": "CNc1ccc(-c2nc3ccc(O)cc3s2)cc1", "tested on": "Amyloid-beta precursor protein, amyloid-beta (APP, Homo sapiens, UniProt P05067)", "test": "binding, competition binding", "system": "amyloid-beta aggregates", "conditions": "100 nM, together with: tritiated amyloid ligand", "endpoint": "inhibition", "value": "77.7% and 82.7%"}
{"SMILES": "CN(CCC#N)C(=O)c1ccc(C2CCCCC2)cc1", "test": "hepatocyte stability", "system": "cryopreserved human hepatocytes", "conditions": "1 µM", "endpoint": "hepatic clearance", "value": "17 mL/min/kg"}
{"SMILES": "OO", "tested on": "Histone acetyltransferase GCN5, with Ada2 and Ada3 (Saccharomyces cerevisiae S288c, UniProt Q03330)", "test": "enzyme activity, inhibitor", "conditions": "62.5 µM, Gcn5-Ada2-Ada3 complex, no DTT, together with: [3H]acetyl-CoA", "endpoint": "inhibition", "value": "10 ± 10%"}
{"SMILES": "COc1cc(-c2cc(C(C)=O)n3ccccc23)c(OC)cc1Cn1ccnc1", "tested on": "Transcription intermediary factor 1-alpha (TRIM24, Homo sapiens, UniProt O15164)", "conditions": "1 µM", "endpoint": "inhibition", "value": "-3.89%"}
{"SMILES": "CCN(CC)C(=S)S", "tested on": "Receptor-type tyrosine-protein phosphatase C (PTPRC, Homo sapiens, UniProt P08575)", "test": "Lck phosphorylation, inhibitor, immunoblot", "conditions": "75 µM, 2 min", "endpoint": "inhibition", "value": "no inhibition"}
{"SMILES": "CC[C@@H]1[C@H](F)C(=O)N[C@@H]1COc1nccc2cc(C(N)=O)c(OC)cc12", "tested on": "RAC-alpha serine/threonine-protein kinase (AKT1, Homo sapiens, UniProt P31749)", "test": "ATP probe binding, KiNativ profiling, refers to: ATP loop probe site", "system": "THP-1 cell lysate", "conditions": "0.01 mM", "endpoint": "inhibition", "value": "-4.8%"}
{"SMILES": "Cc1nn(-c2nc3c(F)cc(F)cc3s2)c(O)c1C(c1ccccc1C(=O)O)c1c(C)nn(-c2nc3c(F)cc(F)cc3s2)c1O", "tested on": "CGAS catalytic domain; with DNA", "test": "cGAS phase separation, inhibitor", "conditions": "2.5 µM", "endpoint": "inhibition", "value": "99.9%"}
{"SMILES": "CN1CC(Oc2cnc(C#N)cc2-c2ccn3nc(NC(=O)C4CC4)cc3c2)C1", "tested on": "Casein kinase II subunit alpha (CSNK2A1, Homo sapiens, UniProt P68400)", "test": "kinase activity", "conditions": "1 µM, ATP10", "endpoint": "inhibition", "value": "2%"}
{"SMILES": "Cc1nn(-c2nc3c(F)cc(F)cc3s2)c(O)c1C(c1ccc(C(F)(F)F)cc1)c1c(C)nn(-c2nc3c(F)cc(F)cc3s2)c1O", "tested on": "CGAS catalytic domain; with DNA", "test": "cGAS phase separation, inhibitor", "conditions": "0.781 µM", "endpoint": "inhibition", "value": "12.3%"}
{"SMILES": "COc1ccc(F)cc1C(=O)NCc1ccc(-c2nn([C@@H](C)C(F)(F)F)c(N)c2C(N)=O)cc1", "tested on": "Phosphatidylinositol 4,5-bisphosphate 3-kinase catalytic subunit beta isoform (PIK3CB, Homo sapiens, UniProt P42338)", "test": "target engagement, competitive chemoproteomics", "system": "human PBMCs", "conditions": "0.01 µM", "endpoint": "inhibition", "value": "7.3%"}
{"SMILES": "O=C(O)CNC(=O)c1ccc(C(=O)N2CCC(c3ccc(Cl)cc3)CC2)cn1", "tested on": "USP3 ZnF-UBD domain", "endpoint": "Kd", "value": "344 µM"}
{"SMILES": "COCCC(=O)Nc1ccc([C@H]2[C@@H](F)[C@@H](F)C[C@@H](F)[C@H]2F)cc1", "test": "liver microsome stability", "system": "human liver microsomes", "conditions": "1 µM, without NADPH", "endpoint": "hepatic clearance", "value": "11 mL/min/kg"}
{"SMILES": "CN(C(=O)n1cnc(-c2ccc[n+]([O-])c2)c1)C1CCCCC1", "tested on": "Sigma non-opioid intracellular receptor 1 (SIGMAR1, Homo sapiens, UniProt Q99720)", "conditions": "10 µM", "endpoint": "inhibition", "value": "7.89%"}
{"SMILES": "Cc1cc(Nc2cc3ncccc3c(N[C@@H]3C[C@H]4CC[C@@H](C3)N4CCC#N)n2)n[nH]1", "tested on": "MT3 melatonin receptor hamster", "test": "radioligand binding, Eurofins binding panel", "conditions": "10 µM", "endpoint": "inhibition", "value": "> 50%"}
{"SMILES": "COc1c(C#N)ccnc1N1C2CCC1CN(C(=O)c1cccnc1-n1cccn1)C2", "tested on": "GABA-gated chloride channel", "test": "binding", "conditions": "10 µM", "endpoint": "inhibition", "value": "9.6%"}
{"SMILES": "COc1ccc2c(c1)CN(CCCN1CCN(c3ccccc3OC)CC1)C2=O", "tested on": "HTR3A", "test": "radioligand binding", "conditions": "concentration not given, together with: [3H]GR65630", "endpoint": "inhibition", "value": "7.9%"}
{"SMILES": "CCc1oc2ccccc2c1C(=O)c1cc(Br)c(O)c(Br)c1", "tested on": "Solute carrier family 22 member 12 (SLC22A12, Homo sapiens, UniProt Q96S37, F365A)", "test": "uric acid uptake", "system": "HEK293T transfected with SLC22A12 F365A", "conditions": "0.5 µM, 10 min, 37 °C, mean, together with: [14C]urate 200 µM", "endpoint": "inhibition", "value": "53.2%"}
{"SMILES": "Cc1ccc(OC[C@H]2CN(CCN3CCc4ccccc43)CCO2)cn1", "tested on": "HTR3A", "test": "radioligand binding", "conditions": "concentration not given, together with: [3H]GR65630", "endpoint": "inhibition", "value": "-15%"}
{"SMILES": "COc1cc2nc(N3CCN(C(=O)c4ccco4)CC3)nc(N)c2cc1OC", "tested on": "rat α1-Adrenergic receptor", "test": "binding", "conditions": "1 × 10 µM", "endpoint": "inhibition", "value": "99.7%"}
{"SMILES": "C#Cc1cc(-c2cc(Nc3nc(N[C@@H](C)c4ccc(F)cn4)ncc3Cl)n[nH]2)ccc1C=O", "tested on": "High affinity nerve growth factor receptor (NTRK1, Homo sapiens, UniProt P04629, G667C)", "test": "enzyme activity, inhibitor", "conditions": "0.2 µM", "endpoint": "inhibition", "value": "101%"}
{"SMILES": "O=C1c2ccccc2CCCN1CCCCN1CCN(c2ccccn2)CC1", "tested on": "HTR3A", "test": "radioligand binding", "conditions": "concentration not given, together with: [3H]GR65630", "endpoint": "inhibition", "value": "19.4%"}
{"SMILES": "CS(=O)(=O)O.c1cc2c(cc1C1CCCCC1)c1c3n2CCNC3CCC1 (stereo not drawn)", "tested on": "Trypanothione synthetase", "test": "enzyme activity, BIOMOL Green phosphate release", "conditions": "25 µM", "endpoint": "inhibition", "value": "26 ± 4.6%"}
{"SMILES": "CN1CCN(c2cc(-c3ccncc3)c(-c3ccc4ccccc4c3)nn2)CC1", "tested on": "Melanocortin receptor 5 (MC5R, Homo sapiens, UniProt P33032)", "test": "antagonist, FLIPR", "conditions": "10 µM", "endpoint": "inhibition", "value": "1.9%"}
{"SMILES": "O=C(Nc1cccc2c(=O)cc(-c3nnn[nH]3)oc12)c1ccc(OCCCCc2ccccc2)cc1", "tested on": "Volume-regulated anion channel subunit LRRC8C, part LRRC8A IL1 chimera (LRRC8C, Homo sapiens, UniProt Q8TDW0)", "test": "ion current, inhibitor, whole-cell patch clamp", "system": "HCT LRRC8-/- cells, transfected", "conditions": "3 µM, low ionic strength swelling, -100 mV", "endpoint": "inhibition", "value": "65.8% and 54.6% and 23.9% and 35.8%"}
{"SMILES": "CCN1/C(=C/C(C)=O)Sc2ccc(F)cc21", "tested on": "Glucocorticoid receptor (NR3C1, Homo sapiens, UniProt P04150)", "conditions": "10 µM", "endpoint": "inhibition", "value": "9.04%"}
{"SMILES": "Cc1nn(-c2nc3ccccc3[nH]2)c(O)c1C(c1ccccc1C(=O)O)c1c(C)nn(-c2nc3ccccc3[nH]2)c1O", "tested on": "Cyclic GMP-AMP synthase (CGAS, Homo sapiens, UniProt Q8N884)", "test": "enzyme activity, inhibitor, pyrophosphatase-coupled", "conditions": "25 µM, 1.5 h, together with: HT-DNA", "endpoint": "inhibition", "value": "86.6%"}
{"SMILES": "COc1cc2c(cc1OC)C(=O)N(CCCCN1CCN(c3ccccc3OC)CC1)C2", "tested on": "HTR3A", "test": "radioligand binding", "conditions": "concentration not given, together with: [3H]GR65630", "endpoint": "inhibition", "value": "10.4%"}
{"SMILES": "COc1ccccc1OCCNCC(O)COc1cccc2[nH]c3ccccc3c12 (stereo not drawn)", "tested on": "Trypanothione synthetase", "test": "enzyme activity, inhibitor, phosphate release", "conditions": "25 µM", "endpoint": "inhibition", "value": "23.7 ± 6.4%"}
{"SMILES": "CCCCCCCCN(CCC(=O)Nc1ccccc1)C(=O)[C@@H]1CCCN1", "tested on": "Protein-S-isoprenylcysteine O-methyltransferase (Homo sapiens, UniProt O60725)", "test": "enzyme activity", "system": "Sf9 membranes", "conditions": "50 µM, together with: biotin-farnesyl-L-cysteine", "endpoint": "inhibition", "value": "64%"}
{"SMILES": "O=C(O)CCn1sc2ccccc2c1=O", "tested on": "USP3 ZnF-UBD domain", "endpoint": "Kd", "value": "> 1000 µM"}
{"SMILES": "C[C@@H]1CCO[C@H]2Cn3cc(C(=O)NCc4ccc(F)cc4F)c(=O)c(O)c3C(=O)N12", "tested on": "Solute carrier family 22 member 3 (SLC22A3, Homo sapiens, UniProt O75751)", "test": "transport", "system": "MDCK-II, transfected", "conditions": "5 µM, together with: MPP+ 2 µM", "endpoint": "inhibition", "value": "3.96%"}
{"SMILES": "COc1cc(C(=O)NS(=O)(=O)c2ccccc2C)ccc1Cc1cn(C)c2ccc(NC(=O)OC3CCCC3)cc12", "tested on": "Volume-regulated anion channel subunit LRRC8C, part LRRC8A IL1 chimera (LRRC8C, Homo sapiens, UniProt Q8TDW0, C43G/S11C)", "test": "ion current, inhibitor, whole-cell patch clamp", "system": "HCT LRRC8-/- cells", "conditions": "30 µM, +100 mV", "endpoint": "inhibition", "value": "72.8% and 88.7% and 80.5% and 86% and 90%"}
{"SMILES": "Cc1ccnc(C)c1OC[C@H]1CN(CCN2CCc3ccccc32)CCO1", "tested on": "HTR3A", "test": "radioligand binding", "conditions": "concentration not given, together with: [3H]GR65630", "endpoint": "inhibition", "value": "-12.9%"}
{"note": "For quick reference, copied from above:"}
{"SMILES": "COCCC(=O)Nc1ccc([C@H]2[C@@H](F)[C@@H](F)C[C@@H](F)[C@H]2F)cc1", "test": "liver microsome stability", "system": "human liver microsomes", "conditions": "1 µM, without NADPH", "endpoint": "hepatic clearance", "value": "11 mL/min/kg"}
{"SMILES": "CN(C(=O)n1cnc(-c2ccc[n+]([O-])c2)c1)C1CCCCC1", "tested on": "Sigma non-opioid intracellular receptor 1 (SIGMAR1, Homo sapiens, UniProt Q99720)", "conditions": "10 µM", "endpoint": "inhibition", "value": "7.89%"}
{"SMILES": "Cc1cc(Nc2cc3ncccc3c(N[C@@H]3C[C@H]4CC[C@@H](C3)N4CCC#N)n2)n[nH]1", "tested on": "MT3 melatonin receptor hamster", "test": "radioligand binding, Eurofins binding panel", "conditions": "10 µM", "endpoint": "inhibition", "value": "> 50%"}
{"SMILES": "COc1c(C#N)ccnc1N1C2CCC1CN(C(=O)c1cccnc1-n1cccn1)C2", "tested on": "GABA-gated chloride channel", "test": "binding", "conditions": "10 µM", "endpoint": "inhibition", "value": "9.6%"}
{"SMILES": "COc1ccc2c(c1)CN(CCCN1CCN(c3ccccc3OC)CC1)C2=O", "tested on": "HTR3A", "test": "radioligand binding", "conditions": "concentration not given, together with: [3H]GR65630", "endpoint": "inhibition", "value": "7.9%"}
{"SMILES": "CCc1oc2ccccc2c1C(=O)c1cc(Br)c(O)c(Br)c1", "tested on": "Solute carrier family 22 member 12 (SLC22A12, Homo sapiens, UniProt Q96S37, F365A)", "test": "uric acid uptake", "system": "HEK293T transfected with SLC22A12 F365A", "conditions": "0.5 µM, 10 min, 37 °C, mean, together with: [14C]urate 200 µM", "endpoint": "inhibition", "value": "53.2%"}
